Results pooled from the literature.
Every numbered part comes from another study and shows a few of its results, in no order.

Block 1
Target: Sal-like protein 4, full length isoform A (SALL4, Homo sapiens, UniProt Q9UJQ4, residues 1-1053)
Sequence of UniProt Q9UJQ4 (whole entry, looked up): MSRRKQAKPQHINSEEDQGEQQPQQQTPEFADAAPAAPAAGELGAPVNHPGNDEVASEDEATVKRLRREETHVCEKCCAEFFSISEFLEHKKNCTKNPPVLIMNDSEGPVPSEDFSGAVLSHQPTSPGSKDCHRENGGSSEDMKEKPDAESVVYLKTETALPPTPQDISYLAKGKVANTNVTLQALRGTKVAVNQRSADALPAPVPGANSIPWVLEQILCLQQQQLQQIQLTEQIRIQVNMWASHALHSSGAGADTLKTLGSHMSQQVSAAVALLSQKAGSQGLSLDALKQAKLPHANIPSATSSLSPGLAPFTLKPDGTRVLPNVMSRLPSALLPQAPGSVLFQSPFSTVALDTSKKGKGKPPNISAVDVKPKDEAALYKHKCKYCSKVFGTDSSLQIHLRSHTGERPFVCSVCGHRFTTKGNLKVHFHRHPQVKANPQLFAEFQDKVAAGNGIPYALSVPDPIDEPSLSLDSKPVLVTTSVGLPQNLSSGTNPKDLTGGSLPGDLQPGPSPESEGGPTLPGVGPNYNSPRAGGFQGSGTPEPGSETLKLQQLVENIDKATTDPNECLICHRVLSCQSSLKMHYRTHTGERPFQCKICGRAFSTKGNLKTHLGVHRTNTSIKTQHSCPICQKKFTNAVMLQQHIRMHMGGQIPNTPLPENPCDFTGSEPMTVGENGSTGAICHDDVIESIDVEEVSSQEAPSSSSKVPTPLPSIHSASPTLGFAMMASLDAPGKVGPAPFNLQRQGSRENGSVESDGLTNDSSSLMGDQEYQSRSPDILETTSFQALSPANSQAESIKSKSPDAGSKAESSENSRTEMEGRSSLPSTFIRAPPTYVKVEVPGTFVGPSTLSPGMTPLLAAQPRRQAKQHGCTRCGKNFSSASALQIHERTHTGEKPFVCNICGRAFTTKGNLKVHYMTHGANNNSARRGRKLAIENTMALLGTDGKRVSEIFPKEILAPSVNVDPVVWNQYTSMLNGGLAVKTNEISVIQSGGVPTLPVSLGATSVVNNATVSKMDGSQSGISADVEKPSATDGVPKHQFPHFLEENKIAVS
Technique: universal PBM
Form: double-stranded DNA, one strand shown
Medium: in vitro
Tested at: 600 nM
Notes: 8-mer, flanks averaged, mean of replicates
Direction: higher = stronger binding
For `CGTGTCAA`, the E-score was -0.193.
For `CCGTGACA`, the E-score was -0.0321.
`GATGATCA` has an E-score of 0.00128.
For `AGAAACAC`, the E-score was 0.13.
The E-score of `AGAATACC` is reported as 0.103.
With `AAGCGAGA` the E-score was 0.0291.
`GGCTTTGA` has an E-score of -0.15.
`TAAAGCCA` gave an E-score of 0.174.

Block 2
Target: Ras GTPase-activating protein-binding protein 1, full length (G3BP1, Homo sapiens, UniProt Q13283)
Sequence of UniProt Q13283 (whole entry, looked up): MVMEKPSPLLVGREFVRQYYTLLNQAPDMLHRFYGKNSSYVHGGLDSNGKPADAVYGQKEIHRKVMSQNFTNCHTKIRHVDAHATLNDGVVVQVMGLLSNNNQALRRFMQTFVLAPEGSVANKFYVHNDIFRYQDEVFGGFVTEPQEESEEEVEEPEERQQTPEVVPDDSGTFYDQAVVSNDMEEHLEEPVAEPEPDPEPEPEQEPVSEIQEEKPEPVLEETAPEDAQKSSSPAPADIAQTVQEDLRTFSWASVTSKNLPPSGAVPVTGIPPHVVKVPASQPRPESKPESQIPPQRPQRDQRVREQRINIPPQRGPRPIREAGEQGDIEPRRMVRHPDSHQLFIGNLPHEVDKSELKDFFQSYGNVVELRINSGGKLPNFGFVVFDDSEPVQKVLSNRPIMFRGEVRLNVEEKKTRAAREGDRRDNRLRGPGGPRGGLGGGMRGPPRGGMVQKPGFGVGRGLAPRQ
Technique: RNA Bind-n-Seq
Form: RNA
Medium: in vitro
Tested at: 200 nM
Notes: whole 134-nt RNA, ends assumed
Together with: 150 mM LiCl
Relative to: input library
Direction: higher = stronger binding
Library: 7-deaza-guanosine replaces G
The log2 enrichment of `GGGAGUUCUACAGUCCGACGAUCACCAUGCAGGUGGGCAUCUUUGGGAAGUGGGGCAAGGGGGGGGUAGGGAGGGGGGUAACACUUUGGGAACAGGUGGUCCCAGGUCGUUUCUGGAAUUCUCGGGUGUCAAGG` is reported as -0.0101.
The log2 enrichment of `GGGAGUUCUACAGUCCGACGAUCUCCUCAAGUCCUGUGCUACACAUCGUAUGUACCGAAUCGGCGGGGCGGCGGAAAGUAUUAUGUUACGCCGUUCGGAUCUGCACUUCCAGCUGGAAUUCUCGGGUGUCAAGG` is reported as 0.772.
`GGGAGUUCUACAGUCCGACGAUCCCUGUGCUACACAUCGUAUGUACCGAAUCGGGGCCCCCCGGGCCCCCCGGGCCCCCCGGGGAAAGUAUUAUGUUACGCCGUUCGGAUCUGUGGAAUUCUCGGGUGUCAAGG` gave a log2 enrichment of -0.796.
`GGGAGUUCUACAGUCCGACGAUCAAGUCCUGUGCUACACAUCGUAUGUACCGAAUCGGGGUGGGGUGGGGAAAAAGGGGAAAGUAUUAUGUUACGCCGUUCGGAUCUGCACUUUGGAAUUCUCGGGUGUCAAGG` gave a log2 enrichment of -0.407.
For `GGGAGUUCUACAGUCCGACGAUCUUGGGUCCAGACUGCGCCACAGCCUCUCGGGAGACGUGGGCCCUCGGAACCUUUUUAGUGCCGGACUCCGGGCCGCAGGCAGUCCCGCGGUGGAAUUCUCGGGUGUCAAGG`, the log2 enrichment was -1.78.
The log2 enrichment of `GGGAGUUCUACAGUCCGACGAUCCAAGUCCUGUGCUACACAUCGUAUGUACCGAAUCGGGGCCCGGCCCGGGGCCCGGGAAAGUAUUAUGUUACGCCGUUCGGAUCUGCACUUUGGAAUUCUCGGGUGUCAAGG` is reported as -1.16.
`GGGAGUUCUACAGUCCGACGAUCGUCCUGUGCUACACAUCGUAUGUACCGAAUCAAAUUUAAACCCCCAAAUUUUUUUAAAAAAGUAUUAUGUUACGCCGUUCGGAUCUGCACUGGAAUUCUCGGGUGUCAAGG` gave a log2 enrichment of 0.581.

Block 3
Target: Histone acetyltransferase KAT6A, winged helix 2, GST fusion (KAT6A, Homo sapiens, UniProt Q92794, residues 85-181)
Technique: protein binding microarray
Form: double-stranded DNA, one strand shown
Medium: in vitro
Tested at: not given
Notes: 8-mer, flanks averaged, mean of 2 arrays, mostly near background
Relative to: not given
Direction: higher = stronger binding
Residues (chain): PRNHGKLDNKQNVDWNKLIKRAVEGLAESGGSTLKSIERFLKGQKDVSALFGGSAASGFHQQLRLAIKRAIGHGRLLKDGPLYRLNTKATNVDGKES
For `CGCTGTCA`, the E-score was 0.0855.
The E-score of `CAATCAGA` is reported as -4e-05.
`CGGAGCAC` has an E-score of 0.0921.
`ACCGGTTC` gave an E-score of -0.148.
For `ACCCTCTA`, the E-score was -0.183.
With `GTGCTGGA` the E-score was 0.0175.
`AGGTAGGA` gave an E-score of -0.118.

Further values, each from its own experiment
`PhoQ, residues 284 288 289 292 302 303 WVSSAF` gave a fold induction of 15.7 (PhoP, residues 12 14 15 18 19 NQFFI (Escherichia coli, UniProt P23836); Sort-seq, measured: YFP reporter; E. coli; PhoQ-PhoP variant library, together with: 10 µM Mg2+; relative to: high Mg2+ state, higher = stronger signaling).

A few entries again (block 2):
`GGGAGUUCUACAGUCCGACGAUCAAGUCCUGUGCUACACAUCGUAUGUACCGAAUCGGGGUGGGGUGGGGAAAAAGGGGAAAGUAUUAUGUUACGCCGUUCGGAUCUGCACUUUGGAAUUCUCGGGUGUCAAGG` gave a log2 enrichment of -0.407.
`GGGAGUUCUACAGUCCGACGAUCGUCCUGUGCUACACAUCGUAUGUACCGAAUCAAAUUUAAACCCCCAAAUUUUUUUAAAAAAGUAUUAUGUUACGCCGUUCGGAUCUGCACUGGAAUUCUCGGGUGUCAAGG` gave a log2 enrichment of 0.581.
